{"data": "Published values pooled from the literature", "note": "Lines come from different studies, so protocols differ. “And” joins repeats or separate records; there may be more than shown."}
{"Structure (SMILES)": "CCN(CC)CC(=O)Nc1cccc(-n2cc(-c3ccc4ccc(-c5cn(-c6cccc(NC(=O)CN(CC)CC)c6)nn5)cc4c3)nn2)c1", "tested on": "RCC4", "assay": "PCR angiogenesis array, measured: TNF", "setting": "5 x IC50, 4 h, normoxia", "scale": "reference: untreated", "endpoint": "fold regulation", "result": "-1.61 fold"}
{"Structure (SMILES)": "CC(C)Cc1ccc(CN2CCCC(NC(=O)c3nn(C)c(=O)c4ccccc34)C2)cc1 (stereo not shown)", "tested on": "Trypanosoma cruzi", "assay": "reporter mRNA translation, inhibitor, measured: Renilla luciferase mRNA", "test system": "cell-free extract", "setting": "concentration not given, test 2", "scale": "reference: positive over negative control", "endpoint": "translation activity", "result": "88.8% and 92%"}
{"Structure (SMILES)": "C=C(NC(=O)c1csc(-c2nc3c(cc2O)-c2nc(cs2)C(=O)NC(C(C)O)C(=O)NC(=C(C)OC)c2nc(cs2)C(=O)NC2c4nc(cs4)C(=O)NC(COC(=O)c4c5c6c(cccc6n4O)COC(=O)C(OC4CC(C)(O)C(N(C)C)C(C)O4)C2OC5)c2nc-3cs2)n1)C(N)=O (stereo not shown)", "tested on": "Staphylococcus epidermidis", "test system": "methicillin-resistant, 10 isolates", "setting": "serum 75%", "endpoint": "MIC50", "result": "0.0625 µg/mL"}
{"Structure (SMILES)": "CN1CCCNC(=O)c2cccc(c2)C(=O)NCCCN(C)CCCNc2cccc3c2C(=O)c2cccc(c2C3=O)NCCC1", "tested on": "SAS", "assay": "RNA-Seq, measured: C10orf143 mRNA", "setting": "1 µM, 6 h", "scale": "reference: untreated cells", "endpoint": "log2 fold change", "result": 2.29}
{"Structure (SMILES)": "Cc1ncsc1-c1ccc(C(C)NC(=O)C2CC(O)CN2C(=O)C(NC(=O)CCCCCCCCCCN2CCCC(Nc3ncc(Cl)c(Nc4ccccc4S(=O)(=O)C(C)C)n3)C2)C(C)(C)C)cc1 (stereo not shown)", "tested on": "22Rv1", "assay": "RNA-seq, measured: ZNF549 mRNA", "setting": "concentration not given", "scale": "reference: DMSO", "endpoint": "log2 fold change", "result": -1.23}
{"Structure (SMILES)": "Nc1ncc(-c2cc(-c3cnn(CC(F)(F)F)c3)ncc2F)nc1C(=O)NC1CNCC(F)C1 (stereo not shown)", "tested on": "PKAC-alpha", "assay": "KINOMEscan competition binding", "setting": "1 µM", "scale": "reference: DMSO control", "endpoint": "remaining binding", "result": "92%"}
{"Structure (SMILES)": "Cn1ncc2cc(-c3cncc(Cl)c3N3CCC4(CCNC4=O)CC3)ccc21", "tested on": "LS174T", "assay": "gene expression, microarray, measured: PTGS2 mRNA", "setting": "concentration not given, 4 h", "scale": "reference: untreated cells", "endpoint": "log2 fold change", "result": -1.23}
{"Structure (SMILES)": "COC1CN([C@H]2CC[C@H]([C@@]3(C)Oc4c(Cl)cc(C(=O)NCc5c(SC)cc(C)[nH]c5=O)c(C)c4O3)CC2)C1", "assay": "RNA-seq, measured: RHPN2", "test system": "human, whole blood", "setting": "dose not given, 24 h", "scale": "reference: pretreatment baseline", "endpoint": "log2 fold change", "result": 2.86}
{"Structure (SMILES)": "CC(C)c1ccc(N(C)c2ccc3c(c2)OCC[C@H]3CNc2cnccc2C(=O)O)cc1", "tested on": "DV-90", "assay": "cell viability, CellTiter-Glo", "setting": "7 days", "endpoint": "IC50", "result": "7.36 nM"}
{"Structure (SMILES)": "C=CC(=O)Nc1cccc(Cn2ncc3cnc(Nc4cnn(CCOC)c4)nc32)c1", "tested on": "human BRK", "assay": "KINOMEscan", "setting": "100 nM", "scale": "reference: control", "endpoint": "binding", "result": "97%"}
{"Structure (SMILES)": "CNS(=O)(=O)Nc1nccc(Cc2c(C)c3ccc(Oc4ncccc4F)cc3oc2=O)c1F", "tested on": "TF-1", "assay": "cell viability", "setting": "7 days", "endpoint": "IC50", "result": "9.72 nM"}
{"Structure (SMILES)": "C1CCC(OCCN2CCN(CCOC3CCCCC3)CC2)CC1", "tested on": "Trypanosoma cruzi", "assay": "reporter mRNA translation, inhibitor, measured: Renilla luciferase mRNA", "test system": "cell-free extract", "setting": "concentration not given, test 1", "scale": "reference: positive over negative control", "endpoint": "translation activity", "result": "110% and 118%"}
{"Structure (SMILES)": "CCOc1cncc(-c2ccc(NC(=O)C3(c4ccnc(NS(=O)(=O)C5CC5)n4)CCOCC3)nc2)n1", "tested on": "MM1.S", "assay": "cell growth or viability, ATP luminescence", "setting": "72 h", "endpoint": "IC50", "result": "76 nM"}
{"note": "Repeated from above:"}
{"Structure (SMILES)": "CNS(=O)(=O)Nc1nccc(Cc2c(C)c3ccc(Oc4ncccc4F)cc3oc2=O)c1F", "tested on": "TF-1", "assay": "cell viability", "setting": "7 days", "endpoint": "IC50", "result": "9.72 nM"}
